{"data": "Published values gathered from unrelated publications", "cell line": "SK-OV-3", "note": "Compare with care: the assays were run in different laboratories. pEC50, pIC50: −log10 of the molar value."}
{"Compound": "CC(C)(C)c1cc2c(O)c(c1)Cc1cc(C(C)(C)C)cc(c1OCC(=O)Nc1ccncc1)Cc1cc(C(C)(C)C)cc(c1O)Cc1cc(C(C)(C)C)cc(c1OCC(=O)Nc1ccncc1)COC2", "test": "cell growth or viability, MTT", "setting": "15 µM, 72 h", "endpoint": "inhibition", "result": "36%"}
{"Compound": "Clc1nc2ccccc2cc1-c1nc2cc(Br)ccc2[nH]1", "test": "cell growth or viability, MTT", "setting": "48 h", "endpoint": "pIC50", "result": 4.47}
{"Compound": "CC(=O)OC[C@H]1O[C@@H](Sc2sc(C(=O)c3ccc(Br)cc3)c(N)c2-c2nc3ccccc3s2)[C@H](OC(C)=O)[C@@H](OC(C)=O)[C@H]1OC(C)=O", "test": "SRB", "setting": "10 µM, 48 h", "scale": "reference: untreated", "endpoint": "growth", "result": "57.3%"}
{"Compound": "COc1ccc2nc(Cl)c(-c3nc4cc(F)ccc4[nH]3)cc2c1", "test": "cell growth or viability, MTT", "setting": "48 h", "endpoint": "pIC50", "result": "< 4.00"}
{"Compound": "CN[C@@H](C)C(=O)N[C@H]1CN(C(=O)Cc2ccccc2)CC[C@H]2CC[C@@H](C(=O)NCc3ccc(C(F)(F)F)cc3)N2C1=O", "test": "cIAP1 degradation, western blot, item: cIAP1", "setting": "24 h", "endpoint": "onset concentration", "result": "> 100 nM"}
{"Compound": "CCC(=C(c1ccc(Cl)cc1)c1ccc(OCCCN(C)C)cc1)c1ccc(OC)cc1", "test": "cell growth or viability", "endpoint": "GI50", "result": "10 µM"}
{"Compound": "CC(C)(C)c1cc2c(O)c(c1)Cc1cc(C(C)(C)C)cc(c1OCC(=O)Nc1cncc3ccccc13)Cc1cc(C(C)(C)C)cc(c1O)Cc1cc(C(C)(C)C)cc(c1OCC(=O)Nc1cncc3ccccc13)COC2", "test": "cell growth or viability, MTT", "setting": "15 µM, 72 h", "endpoint": "inhibition", "result": "75%"}
{"Compound": "C=C(CC)C(=O)c1ccc(OCC(=O)NCCCCNC(=O)COc2ccc(C(=O)C(=C)CC)c(Cl)c2Cl)c(Cl)c1Cl", "test": "cell growth, CCK-8", "setting": "72 h", "endpoint": "IC10", "result": "~1 µM"}
{"Compound": "CC(=O)OC[C@H]1O[C@@H](Sc2sc(C(=O)c3ccc(C)cc3)c(N)c2-c2nc3ccccc3s2)[C@H](OC(C)=O)[C@@H](OC(C)=O)[C@H]1OC(C)=O", "test": "SRB", "setting": "10 µM, 48 h", "scale": "reference: untreated", "endpoint": "growth", "result": "52.6%"}
{"Compound": "COc1ccc2nc(Cl)c(-c3nc4cc(Cl)ccc4[nH]3)cc2c1", "test": "cell growth or viability, MTT", "setting": "48 h", "endpoint": "pIC50", "result": 5.05}
{"Compound": "CC/C=C\\C/C=C\\C/C=C\\C/C=C\\C/C=C\\C/C=C\\CCC(=O)Nc1ccn(C2OC(CO)C(O)C2(F)F)c(=O)n1 (stereo not drawn)", "test": "cell growth or viability, SRB", "endpoint": "GI50", "result": "0.11 µM"}
{"Compound": "Cc1ccc2nc(Cl)c(-c3nc4cc(Br)ccc4[nH]3)cc2c1", "test": "cell growth or viability, MTT", "setting": "48 h", "endpoint": "pIC50", "result": "< 4.00"}
{"Compound": "CN[C@@H](C)C(=O)N[C@H]1CN(C(=O)Cc2ccccc2)CC[C@H]2CC[C@@H](C(=O)NCc3ccc(Br)cc3)N2C1=O", "test": "apoptosis, annexin V/PI flow cytometry", "setting": "24 h", "endpoint": "minimum effective concentration", "result": "100 to 300 nM"}
{"Compound": "C=C(CC)C(=O)c1ccc(OCC(=O)NCCNC(=O)COc2ccc(C(=O)C(=C)CC)c(Cl)c2Cl)c(Cl)c1Cl", "test": "cell growth or viability, CCK-8", "setting": "2.5 µM", "endpoint": "inhibition", "result": "> 50%"}
{"Compound": "CC(=O)OCC1(O)C(Nc2cccc(C(C)=O)c2)C(N)C(NC(=O)N(C)C)(C(C)OC(C)=O)C1(C)O (stereo not drawn)", "test": "cell growth or viability", "endpoint": "pEC50", "result": 6.91}
{"Compound": "CC(C)(C)c1cc2c(O)c(c1)Cc1cc(C(C)(C)C)cc(c1OCC(=O)Nc1nccs1)Cc1cc(C(C)(C)C)cc(c1O)Cc1cc(C(C)(C)C)cc(c1OCC(=O)Nc1nccs1)COC2", "test": "cell growth or viability, MTT", "setting": "15 µM, 72 h", "endpoint": "inhibition", "result": "40%"}
{"Compound": "COc1ccc2nc(Cl)c(-c3nc4cc(Cl)c(Cl)cc4[nH]3)cc2c1", "test": "cell growth or viability, MTT", "setting": "48 h", "endpoint": "pIC50", "result": 4.75}
{"Compound": "CC(C)(C)c1cc2c(O)c(c1)Cc1cc(C(C)(C)C)cc(c1OCC(=O)NCc1ccncc1)Cc1cc(C(C)(C)C)cc(c1O)Cc1cc(C(C)(C)C)cc(c1OCC(=O)NCc1ccncc1)COC2", "test": "cell growth or viability, MTT", "setting": "15 µM, 72 h", "endpoint": "inhibition", "result": "69%"}
{"Compound": "Fc1ccc2[nH]c(-c3cc4cc5c(cc4nc3Cl)OCO5)nc2c1", "test": "cell growth or viability, MTT", "setting": "48 h", "endpoint": "pIC50", "result": "< 4.00"}
{"Compound": "CC(C)(C)c1cc2c(O)c(c1)Cc1cc(C(C)(C)C)cc(c1OCC(=O)NCc1cccnc1)Cc1cc(C(C)(C)C)cc(c1O)Cc1cc(C(C)(C)C)cc(c1OCC(=O)NCc1cccnc1)COC2", "test": "cell growth or viability, MTT", "setting": "15 µM, 72 h", "endpoint": "inhibition", "result": "83%"}
{"Compound": "CC(=O)c1cccc(NC2C(N)C(NC(=O)N(C)C)(C(C)OC(=O)C(C)(C)C)C(C)(O)C2(O)COC(=O)C(C)(C)C)c1 (stereo not drawn)", "test": "cell growth or viability", "endpoint": "pEC50", "result": 6.23}
{"note": "Excerpt of the above:"}
{"Compound": "CC(=O)c1cccc(NC2C(N)C(NC(=O)N(C)C)(C(C)OC(=O)C(C)(C)C)C(C)(O)C2(O)COC(=O)C(C)(C)C)c1 (stereo not drawn)", "test": "cell growth or viability", "endpoint": "pEC50", "result": 6.23}
